Measured values pooled from the literature.
Every numbered part comes from another study and shows a few of its results, in no order. Substitutions count along the parent as printed.

Study 1 — technique: RNA Bind-n-Seq; form: RNA; matrix: in vitro; tested at: not given; relative to: input RNA pool; reading: higher = stronger binding; quantity: bound/input enrichment
Target: RING finger protein unkempt homolog, zinc fingers 1-6, GST-SBP tag (UNK, Homo sapiens, UniProt Q9C0B0, residues 30-357)
Setting: RNA with constant flanks, human and mouse sites, ends assumed
Constant ends, left off below: GGGAGUUCUACAGUCCGACGAUC … CAACAGAGGAUUGAGCAUCA
Target sequence (chain): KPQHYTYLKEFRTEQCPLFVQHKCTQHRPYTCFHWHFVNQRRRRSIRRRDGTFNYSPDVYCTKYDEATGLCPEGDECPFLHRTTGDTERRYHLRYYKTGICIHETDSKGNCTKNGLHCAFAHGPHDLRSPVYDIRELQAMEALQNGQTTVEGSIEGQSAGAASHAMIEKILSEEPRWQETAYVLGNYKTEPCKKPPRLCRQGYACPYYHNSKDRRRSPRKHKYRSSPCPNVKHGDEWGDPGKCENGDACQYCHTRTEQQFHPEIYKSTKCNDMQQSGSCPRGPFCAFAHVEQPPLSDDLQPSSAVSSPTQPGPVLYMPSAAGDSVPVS
Oligonucleotide = CUAUUGGUCUUGGAUGAGUUCAAAAUGGAGAAAAGAAUCAGCAGAAUGUUUUAUAUAAUGACUUUCCUCUUCCUAACCUUGUGGGGUCCCUACCUGGUGGCCUGCUAUUGGAGAGUUUUU; value = 0.269 ratio
Oligonucleotide = UCUGGAGCAGAGCUGUGCACCGGCUGUGGAAGUCGACUGCGCUCCCCCUUCAGUUUUGUGUAUUUACCGAGGUGGUUUUCAUCUGUCUUGGCAAGUUGUCCAAAGAAACCUGUAAGUUCU; value = 0.117 ratio
Oligonucleotide = GAGUCUCAUUGGGAAGAAAAUAGAAAUGAAAAUUCAGGAAAUUCUUGGAAUAAAAACUUUGGUUCUGGUUGGGUAUCUAACCGUGGUAGAGGCAGAGGCAACCGUGGCAGAGGCACUUAC; value = 1.18 ratio
Oligonucleotide = CCAACCAGUCAAGCCCAAAUUGUGCAAGGUAUUACACCACAGACAAUCCAUGGUGUGCAAGCCAGUGGUCAAAAUAUAUCACAACAGGCUUUGCAAAAUCUUCAGUUGCAGCUGAAUCCU; value = 0.36 ratio
Oligonucleotide = CAUAAUUAUGGUGCUCGUCCUCCUCCGACACCUCCGGCUUCCCCUCCUCCAUCAGUCCUUAUUAGCAAAAAUGAAGUAGGCAUAUUUACCACUCCUAAUUUUGAUGAAACUUCCAGUGCU; value = 2.31 ratio
Oligonucleotide = GGCCCGGGGCCGCGCUACGAGCUGCGGGACUGCUGCUGGGUGCUGUGCGCGCUGCUCGUGUUCUUCUCCGACGGUGCCACGGACCUGUGGCUGGCGGCCUCCUACUACCUGCAGAAUCAA; value = 0.109 ratio
Oligonucleotide = GAACAUACAAGAAGCCAGAUGCUAUGGCACAUGUUUGUAACCUCAGGAUCCUACAGGGAGAUUUGAAACAGAGAUAAGAGAAUCCCUAGAAGCUCCCAGGCCAGCUAGCCAGGCAUCGUU; value = 0.141 ratio
Oligonucleotide = GACCGGAACCAUCUUGAGGUGCUGCCUCCUGAAAUCGGAGGCUGUGUGGCCCUUAGUGUCCUCUCUUUGAGAGACAAUCGCCUGGCUGUCCUCCCUCCUGAGCUUGCCCAUACCGCUGAG; value = 0.0971 ratio
Oligonucleotide = ACACAUAGAGAAGCUGCAUUGUGGAUUAUAUGGGAAUCACUUUGUGAUGCUUUCUGCUGUUAGUUUUUCUUGGGUUUUUGUUUGUUUUGUUUGCAAAUCUGAUGUCUCAUCACUGCAGGU; value = 0.357 ratio
Oligonucleotide = AUUGGUGGAGAGGCUUGUAUGUGGGGAGAAUAUGUGGACAACACAAACCUGGUCCCCAGGCUCUGGCCCAGAGCAGGGGCUGUUGCCGAAAGGCUGUGGAGCAACAAGUUGACAUCUGAC; value = 0.232 ratio
Oligonucleotide = GAAAAGUUAGAACCUUGCUGUUAAUCUCAUCUGCUGUGUGUGAAGAUCAAUCAGUGGUCCCUUAGAUUCUUCCCUGCUAACCAAGGAAACAGGGUCGGCCUUGAUAAAUCAAGGGAGUUG; value = 0.365 ratio

Study 2 — technique: DHFR PCA, deep sequencing; matrix: yeast; with: (+)-ABA 2500 µM; relative to: wild-type fitted maximum; reading: higher = stronger binding; quantity: relative binding score
Target: ABI1, truncated, D143A, DHFR fusion (Arabidopsis thaliana)
Setting: methotrexate growth selection, single substitutions
Starting sequence: PYL1, truncated, DHFR fusion (Arabidopsis thaliana); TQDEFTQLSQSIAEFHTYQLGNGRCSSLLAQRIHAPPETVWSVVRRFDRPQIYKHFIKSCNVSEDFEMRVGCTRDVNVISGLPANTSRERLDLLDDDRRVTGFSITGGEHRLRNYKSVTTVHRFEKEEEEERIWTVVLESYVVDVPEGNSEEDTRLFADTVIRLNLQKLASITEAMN; partner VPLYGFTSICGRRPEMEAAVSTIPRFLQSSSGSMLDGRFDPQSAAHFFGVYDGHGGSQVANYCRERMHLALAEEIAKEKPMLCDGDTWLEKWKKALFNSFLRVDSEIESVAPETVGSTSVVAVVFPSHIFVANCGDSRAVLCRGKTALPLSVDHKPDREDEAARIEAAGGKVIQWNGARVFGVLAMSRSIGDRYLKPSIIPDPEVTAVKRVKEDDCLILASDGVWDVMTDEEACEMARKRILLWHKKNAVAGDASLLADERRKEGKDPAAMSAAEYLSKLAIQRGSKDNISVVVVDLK
Substitution = R45T; value = 73.5%
Substitution = K58Y; value = 92.4%
Substitution = I57F; value = 66.8%
Substitution = A170S; value = 94.5%
Substitution = D96Y; value = 75%
Substitution = S42A; value = 97.5%
Substitution = H122A; value = 83.8%
Substitution = C25I; value = 93%
Substitution = S140A; value = 44.7%
Substitution = R99S; value = 93.4%
Substitution = R163E; value = 90.1%
Substitution = Y18A; value = 91.8%
Substitution = V145H; value = 73.9%
Substitution = N149H; value = 69.7%
Substitution = F103E; value = 5.06%
Substitution = A84L; value = 8.82%

Study 3 — target: CCNE2, cyclin fold, Cln2 fusion (human); technique: yeast growth competition, sequencing; matrix: yeast; setting: weak parent motif; relative to: not given; reading: higher = stronger binding; quantity: normalised enrichment score
Starting sequence: PKMYT1 docking peptide (human); SFEPRNLLSLFED
Substitution = YFEPRNLLSLFED [S1Y]; value = -0.971
Substitution = SREPRNLLSLFED [F2R]; value = -0.0225
Substitution = SFEPRNLLSLFLD [E12L]; value = -0.186
Substitution = SFECRNLLSLFED [P4C]; value = 0.943
Substitution = SFEPRNGLSLFED [L7G]; value = -0.252
Substitution = SFEPRNLLSLVED [F11V]; value = 0.13
Substitution = SFEPRNLLSLEED [F11E]; value = -0.111
Substitution = SFLPRNLLSLFED [E3L]; value = 0.502
Substitution = SFEPRNLLSLFVD [E12V]; value = 1.13
Substitution = SFEPRNLLSLFER [D13R]; value = 0.198
Substitution = SFFPRNLLSLFED [E3F]; value = 0.42
Substitution = TFEPRNLLSLFED [S1T]; value = -0.0215
Substitution = SFEPTNLLSLFED [R5T]; value = -0.006
Substitution = SFEPQNLLSLFED [R5Q]; value = 0.174
Substitution = EFEPRNLLSLFED [S1E]; value = 0.044
Substitution = SFEPRRLLSLFED [N6R]; value = 0.281
Substitution = SFEPLNLLSLFED [R5L]; value = 0.214
Substitution = SFEPRNLLSFFED [L10F]; value = -0.126

Study 4 — target: UBE2V1 UBC core domain (UniProt Q13404); technique: yeast two-hybrid; matrix: yeast; setting: mostly zero background; relative to: not given; reading: higher = stronger interaction; quantity: lacZ reporter activity
B1: TRIM55 RING domain (UniProt Q9BYV6); chain TMDNLEKQLICPICLEMFTKPVVILPCQHNLCRKCASDIFQASNPYLPTRGGTTMASGGRFRCPSCRHEVVLDRHG
B2: RNF4 RING domain (UniProt P78317); chain TGLRPSGTVSCPICMDGYSEIVQNGRLIVSTECGHVFCSQCLRDSLKNANTCPTCRKKINHKRYHP
B3: TRIM38 RING domain (UniProt O00635); chain STKKMMEEATCSICLSLMTNPVSINCGHSYCHLCITDFFKNPSQKQLRQETFCCPQCRAPFHMDSLRP
B4: PHF7 RING domain (UniProt Q9BWX1); chain IQHGHVGEESCILCCEDLSQQSVENIQSPCCSQAIYHRKCIQKYAHTSAKHFFKCPQCNNRKEFPQEML
Residues (chain): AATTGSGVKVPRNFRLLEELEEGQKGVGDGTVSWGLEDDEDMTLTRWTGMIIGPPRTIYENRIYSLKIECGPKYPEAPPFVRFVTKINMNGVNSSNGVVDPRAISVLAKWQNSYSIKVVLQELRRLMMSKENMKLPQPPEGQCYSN
Sequence = B1 (TRIM55 RING domain); value = 0
Sequence = B2 (RNF4 RING domain); value = 0
Sequence = B3 (TRIM38 RING domain); value = 0
Sequence = KRQCSDVDDICSICQAEFQKPILLICQHIFCEECMTLWFNREKTCPLCRTVISDHINKW (RNFT1 RING domain (UniProt Q5M7Z0)); value = 0
Sequence = B4 (PHF7 RING domain); value = 0
Sequence = SYEDKSNDFVCPICFDMIEEAYMTKCGHSFCYKCIHQSLEDNNRCPKCNYVVDNIDHLY (COP1 RING domain (UniProt Q8NHY2)); value = 0

Study 5 — technique: RNA Bind-n-Seq; form: RNA; matrix: in vitro; tested at: 365 nM; relative to: no-protein control; reading: higher = stronger binding; quantity: RBNS enrichment (R)
Target: RNA binding protein fox-1 homolog 2, RRM domain, GST-SBP tag (RBFOX2, Homo sapiens, UniProt O43251-10, residues 100-194)
Setting: natural RNA segment, single round, ends assumed
Constant ends, left off below: GGGAGUUCUACAGUCCGACGAUC … UGGAAUUCUCGGGUGCCAA
Construct (chain): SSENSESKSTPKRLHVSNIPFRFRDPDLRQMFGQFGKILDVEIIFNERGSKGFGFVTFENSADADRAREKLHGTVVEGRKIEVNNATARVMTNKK
Oligonucleotide = GGCUUGACCCUGAGCCAUAGGGAAACUGAACUGUGGGGGCCUGUGGUUGACAGGCCUGUGAAAUCCCCUGUCCCACCCUGGAAUUUCAAAUAAAGAGCUUUUUACCCCUU; value = 0.3
Oligonucleotide = GAAGGAAGGAAGGAAGGAAGGAAGGAAAGACUCAGCUUACUUGUAUCACAGUCUUGACAAAAUUCCUUUUCCCUAAAGCACACUUUGACAUUGUCACAUUAUUGACACAG; value = 0.279
Oligonucleotide = GCUAAUGCAAUUAGCAUUAUGUUUUGCAUGUAUGACUUAAUAAAUCCUUGAAUCAUACGACUGGUAAUACUGGUGUUUUUGAGACUUGAUGAACAAGUUCCUGGUGUGUG; value = 2.56
Oligonucleotide = AAGAAUUCUUGCCAUGGUCCUAAAAACUGGAUUUUAAGAUUAUUUUACUUCCCCUUCAUGCCUGUCUCCAGUAUCCACCCCAGCUUCUUUCUGAAUGUAAGGGAUUAAGA; value = 2.26
Oligonucleotide = CUGUUCUGCUCCUCCCAGACAGAGCCUUUCCCUCACCCCCUGACCCCCUGGGCUGACCAAAAUGUGCUUUCUACUGUGAGUCCCUAUCCCAAGAUCCUGGGGAAAGGAGA; value = 0.721
Oligonucleotide = UCAUAUAUGUAUCCAUUCUGUAGAACACAUCAUGUUAAUAUAGUAUACAUUUAAAAAAAUACUACUUUUUAAAUGGUAGUUUUAAAAUAACAGUAUCUUACUUGUUGCCA; value = 0.576
Oligonucleotide = CUCCUACCCCUUUCCUCACCCCCAAACAAAGCAAAACAAAACAAACAAAAAUCUUCACCUGCCUUGGGCUGCGCAUAGGACAGGGCUCCACCUGCUGCCCAAGGGAUGUG; value = 1.03
Oligonucleotide = UGUAGCAGCUCGGGCCUCAUCUCAGCGCUCGGAUCCCUCCUGCUGCCAGAAUCCACUGGCCUCUGUCUCAUUCUUGGGUUUUCCUGCUGUCUUCGUUUACGUCUCUGUCC; value = 0.315
Oligonucleotide = GUACUGGGGAGGAGGAGAGGUGGGUGGCAGUAGAAGUUUGUGGGGAGAAGGUAACCUUUGCCUACAUAUGGCUGUCCUACAGGGUCUCCCUUGCCUGCAGUGGGAGAGUU; value = 0.702
Oligonucleotide = AAGGGAGGUGAAAAUACCUACCUCACAGAACUGUUGGCUCAGAUGAGACGCUGUAUGUGUAAACAUCCUGUAAACUUCGUACAAAUGUGAAGUAUUAUUAAUAUUGCUAC; value = 0.529
Oligonucleotide = UCCAGGUGCGCACUUUAAAGAAAGUGGCCACCAGGUGUGAUGGUGCAGUCCUAUAGUAACCGAGCUUGCACUCGGGAGGUAGGAAGCCAGAGGCCAGCCUCAAGGUGGCC; value = 0.183
Oligonucleotide = GAUCUCAGGCAUGCCUUCUAGAUUUGUUCCCUCUGAGGGGCAGGAAUGAACUGUAGAAAUGUUUUAAGGACCCAGAAACCCCAUAUGUCUCAUUCCAUGACUAUAGGUGA; value = 9.42

Repeated from above (study 1):
Oligonucleotide = GAACAUACAAGAAGCCAGAUGCUAUGGCACAUGUUUGUAACCUCAGGAUCCUACAGGGAGAUUUGAAACAGAGAUAAGAGAAUCCCUAGAAGCUCCCAGGCCAGCUAGCCAGGCAUCGUU; value = 0.141 ratio
Oligonucleotide = GACCGGAACCAUCUUGAGGUGCUGCCUCCUGAAAUCGGAGGCUGUGUGGCCCUUAGUGUCCUCUCUUUGAGAGACAAUCGCCUGGCUGUCCUCCCUCCUGAGCUUGCCCAUACCGCUGAG; value = 0.0971 ratio
Oligonucleotide = ACACAUAGAGAAGCUGCAUUGUGGAUUAUAUGGGAAUCACUUUGUGAUGCUUUCUGCUGUUAGUUUUUCUUGGGUUUUUGUUUGUUUUGUUUGCAAAUCUGAUGUCUCAUCACUGCAGGU; value = 0.357 ratio
Oligonucleotide = AUUGGUGGAGAGGCUUGUAUGUGGGGAGAAUAUGUGGACAACACAAACCUGGUCCCCAGGCUCUGGCCCAGAGCAGGGGCUGUUGCCGAAAGGCUGUGGAGCAACAAGUUGACAUCUGAC; value = 0.232 ratio
